Measured values pooled from the literature.
Protocols differ between the studies behind these lines. Numbers after ± are the reported error.
UniProt Q9JHG7, sequence (whole entry, looked up): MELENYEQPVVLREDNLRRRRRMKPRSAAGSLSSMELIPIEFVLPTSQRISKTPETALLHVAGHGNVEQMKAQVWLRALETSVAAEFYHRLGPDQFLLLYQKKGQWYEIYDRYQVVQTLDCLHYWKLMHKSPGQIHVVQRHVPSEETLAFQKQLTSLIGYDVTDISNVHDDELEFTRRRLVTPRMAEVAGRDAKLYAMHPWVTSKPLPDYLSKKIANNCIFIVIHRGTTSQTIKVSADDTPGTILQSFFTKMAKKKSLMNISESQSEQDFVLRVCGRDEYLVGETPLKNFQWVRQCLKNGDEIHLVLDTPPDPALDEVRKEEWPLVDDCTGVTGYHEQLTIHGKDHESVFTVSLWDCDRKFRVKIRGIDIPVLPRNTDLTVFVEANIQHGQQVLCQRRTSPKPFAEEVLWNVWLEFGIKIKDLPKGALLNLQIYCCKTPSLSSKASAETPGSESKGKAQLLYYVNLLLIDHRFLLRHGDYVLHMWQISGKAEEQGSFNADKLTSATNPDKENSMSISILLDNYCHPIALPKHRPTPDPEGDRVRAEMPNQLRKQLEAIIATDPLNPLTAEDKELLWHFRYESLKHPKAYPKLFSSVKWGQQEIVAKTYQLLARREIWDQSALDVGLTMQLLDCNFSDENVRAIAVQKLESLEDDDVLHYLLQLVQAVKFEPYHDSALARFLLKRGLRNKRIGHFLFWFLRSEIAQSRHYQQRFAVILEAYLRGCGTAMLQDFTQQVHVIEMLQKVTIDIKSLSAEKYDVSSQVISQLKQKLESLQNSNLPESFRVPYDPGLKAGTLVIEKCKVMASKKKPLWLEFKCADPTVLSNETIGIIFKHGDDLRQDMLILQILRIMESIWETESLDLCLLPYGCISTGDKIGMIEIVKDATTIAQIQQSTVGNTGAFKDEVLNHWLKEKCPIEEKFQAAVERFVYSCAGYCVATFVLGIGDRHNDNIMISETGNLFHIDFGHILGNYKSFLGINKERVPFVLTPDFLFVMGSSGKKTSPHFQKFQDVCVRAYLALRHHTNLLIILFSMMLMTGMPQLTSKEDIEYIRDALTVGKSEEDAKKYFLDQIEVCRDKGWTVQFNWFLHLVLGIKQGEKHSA

CC(=O)NCCN(CC(=O)NCCN(CC(=O)NCCN(CC(=O)NCCC(N)=O)C(=O)[C@@H](N)CCCNC(=N)N)C(=O)[C@@H](N)Cc1ccccc1)C(=O)[C@@H](N)Cc1ccccc1 — binding enthalpy ΔH° (HIV-1 TAR RNA; concentration not given, 25 °C): -51.7 ± 0.5 kJ/mol
C[C@H](Nc1ncnc(N)c1C#N)c1c(-c2ccccc2)[nH]c2c(Cl)cccc2c1=O — IC50 (Phosphatidylinositol 4,5-bisphosphate 3-kinase catalytic subunit gamma isoform (Mus musculus, UniProt Q9JHG7); AKT phosphorylation, AlphaLISA; RAW264.7; together with: C5a): 3.04 µM
F[P-](F)(F)(F)(F)F.OC(Cn1cncn1)(Cn1cc(-[c-]2cccc2)nn1)c1ccc(F)cc1F.[Co+3].c1cc[cH-]c1 (racemic) — MIC50 (Candida albicans; EUCAST; SC5314; 48 h): 100 µM
CNCc1ccc2c(c1)N(C(=O)OCc1c(F)c(F)c(F)c(F)c1F)[C@H](CNC(=N)N)[C@H]2NC(=O)C(=O)Nc1ccc(Cl)c(F)c1 — IC80 (HIV-1; pseudovirus infection, Env pseudovirus neutralisation; TZM-bl, clade A): 3.82 µM
CCCCCCCCCCCCCCCC(=O)N[C@@H](CCC(=O)NCCOCCOCCC(=O)NCCOCCOCCC(=O)NCCCC[C@H](NC(=O)[C@H](CC(=O)O)NC(=O)[C@H](CC(C)C)NC(=O)[C@H](Cc1ccc(O)cc1)NC(=O)[C@H](CCCCN)NC(=O)[C@H](CO)NC(=O)[C@H](Cc1ccc(O)cc1)NC(=O)[C@H](CC(=O)O)NC(=O)[C@H](CO)NC(=O)[C@@H](NC(=O)[C@H](Cc1ccccc1)NC(=O)[C@@H](NC(=O)CNC(=O)[C@H](CCC(N)=O)NC(=O)[C@@H](CO)NC(=O)[C@@H](N)Cc1c[nH]cn1)[C@@H](C)O)[C@@H](C)O)C(=O)N[C@@H](CCCNC(=N)N)C(=O)N[C@@H](CCCNC(=N)N)C(=O)N[C@@H](C)C(=O)N[C@@H](CCC(N)=O)C(=O)N[C@@H](CC(=O)O)C(=O)N[C@@H](Cc1ccccc1)C(=O)N[C@H](C(=O)N[C@@H](CCC(N)=O)C(=O)N[C@@H](Cc1c[nH]c2ccccc12)C(=O)N[C@@H](CC(C)C)C(=O)N[C@@H](CC(C)C)C(=O)N[C@@H](CC(N)=O)C(=O)N[C@H](C(=O)NCC(=O)NCC(=O)N1CCC[C@H]1C(=O)N[C@@H](CO)C(=O)N[C@@H](CO)C(=O)NCC(=O)N[C@@H](C)C(=O)N1CCC[C@H]1C(=O)N1CCC[C@H]1C(=O)N1CCC[C@H]1C(=O)N[C@@H](CO)C(N)=O)[C@@H](C)O)C(C)C)C(=O)O — AUC(0-t) (rhesus monkey, plasma; subcutaneous, 60 µg/kg, single dose): 0.301 µg·h/mL
CNCc1ccc2c(c1)C[C@H](CNC(=N)N)[C@H]2NC(=O)C(=O)Nc1ccc(Cl)c(F)c1 — IC50 (Human immunodeficiency virus 1; viral infection, Env pseudovirus; TZM-bl, 1012_11_TC21_3257 clade B T/F): 28.6 µM
CC(=O)NCCN(CC(=O)NCCN(CC(=O)NCCN(CC(=O)NCCC(N)=O)C(=O)C[C@@H](N)Cc1ccccc1)C(=O)C[C@@H](N)Cc1ccccc1)C(=O)C[C@@H](N)CCCNC(=N)N — binding enthalpy ΔH° (HIV-1 TAR RNA; concentration not given, 25 °C): -26.9 ± 0.8 kJ/mol

Repeated from above:
CNCc1ccc2c(c1)C[C@H](CNC(=N)N)[C@H]2NC(=O)C(=O)Nc1ccc(Cl)c(F)c1 — IC50 (Human immunodeficiency virus 1; viral infection, Env pseudovirus; TZM-bl, 1012_11_TC21_3257 clade B T/F): 28.6 µM
